Published values pooled from the literature.
Protocols differ between the studies behind these lines. Values joined by “and” are separate records of one study, mostly repeats; a detail may differ. ± marks the error that the study gave. ≈ marks a conversion by molar mass, not a printed value.

SMILES	organism	assay	system	conditions	scale	quantity	value
CN(C)CCCN1c2ccccc2CCc2ccccc21	Plasmodium falciparum		GB4			IC50	7.94 µM
C#Cc1cccc(C=NNC(=O)c2ccc(Br)c(Br)c2)c1O	Cryptococcus neoformans		H99	unit not given, together with: fluconazole	lower = more synergy	FICI	0.75
CCCn1c(O)nnc1SCC(=O)Nc1cc(Cl)ccc1Cl	Plasmodium falciparum	parasite growth, SYBR Green	3D7 wild type	72 h		EC50	669 ± 160 nM
CC[C@H]1OC(=O)[C@H](C)[C@@H](O[C@H]2C[C@@](C)(OC)[C@@H](O)[C@H](C)O2)[C@H](C)[C@@H](O[C@@H]2O[C@H](C)C[C@H](N(C)C)[C@H]2O)[C@](C)(O)C[C@@H](C)CN(C)[C@H](C)[C@@H](O)[C@]1(C)O	Staphylococcus aureus					MIC90	> 32 µg/mL
COC(=O)N[C@H](C(=O)N1CCC[C@H]1c1ncc(-c2ccc(-c3ccc(-c4cnc([C@@H]5CCCN5C(=O)[C@@H](NC(=O)OC)C(C)C)[nH]4)cc3)cc2)[nH]1)C(C)C	Hepatitis C virus		replicon cells	90% effect level, together with: NS5B inhibitor, ratio 2.5:1		combination index	0.8
Nc1nc2ccc(Oc3cccnc3)cc2s1	Pseudomonas aeruginosa	swarming area	PA14-lux	200 µM, 24 h	relative to: DMSO	swarming inhibition	47.7%
CCCC1O[C@@H]2C[C@H]3[C@@H]4CCC5=CC(=O)C=C[C@]5(C)[C@H]4[C@@H](O)C[C@]3(C)[C@]2(C(=O)CO)O1 (stereo partly drawn)	Plasmodium falciparum		GB4			IC50	3.16 µM
CC(C)[C@@H]1NC(=O)[C@@H](CCCCN)NC(=O)[C@H]([C@@H](C)O)NC(=O)[C@@H](CCCCN)NC(=O)[C@H](Cc2c[nH]c3ccccc23)NC(=O)[C@@H](C)NC(=O)[C@@H](C(C)C)NC(=O)[C@@H](C)NC(=O)[C@H](Cc2c[nH]c3ccccc23)NC(=O)[C@@H](Cc2c[nH]c3ccccc23)NC1=O	Naegleria fowleri			trophozoites		IC50	> 16 µg/mL
Cc1cc(Cl)cc(S(C)(=O)=O)c1NC(=O)c1cc(Br)nn1-c1ncccc1Cl	Spodoptera litura	leaf-dip	third instar larvae	12.5 ppm, 48 h		mortality	50.7%
O=S(=O)(c1cccc2c(Cl)cccc12)N1CCCNCC1	Plasmodium falciparum		3D7			IC50	12.6 µM
CC(C)[C@@H]1NC(=O)[C@@H](CCCCN)NC(=O)[C@H](CCCN)NC(=O)[C@@H](CC(=O)O)NC(=O)[C@H](C)NC(=O)[C@H](Cc2c[nH]c3ccccc23)NC(=O)[C@@H](Cc2ccccc2)NC1=O	Acanthamoeba castellanii			trophozoites		IC90	> 16 µg/mL
Cn1c(=O)ccc2ccc(F)c(CCNC[C@H]3CN(c4cnc5c(n4)NC(=O)CO5)C(=O)O3)c21	Providencia spp.					MIC90	2 µg/mL (≈ 4.27 µM)
CO[C@H]1[C@H](O[C@H]([C@H]2O[C@@H](n3ccc(=O)[nH]c3=O)[C@H](O)[C@@H]2O)[C@H](NCCCNC(=O)[C@@H](NC(=O)[C@@H](NC(=O)N[C@H](C(=O)O)C(C)C)[C@@H]2CCN=C(N)N2)[C@@H](OC(=O)CCCCCCCCCCCCN(O)C(=N)N)C(C)C)C(=O)O)O[C@H](CN)[C@H]1O	Candida glabrata	alamar blue	DSY565 (NR-51686)			MIC50	> 35 µg/mL
Nc1ncnc2c1ncn2[C@@H]1O[C@@H]2COP(=O)(O)O[C@H]3[C@@H](O)[C@H](n4cnc5c(=O)[nH]cnc54)O[C@@H]3COP(=O)(O)O[C@H]2[C@H]1O	West Nile virus	RNA sequencing, item: trimerization, collagen chain, R-HSA-8948216	HFF-1 cells	concentration not given, downregulated pathway	relative to: WNV-infected untreated cells	fold enrichment	9.64
CCCCCC[C@H]1C(=O)O[C@H](C)[C@H](NC(=O)c2cccc(NC=O)c2O)C(=O)O[C@@H](C)[C@@H]1OC(=O)CC(C)C	Human alphaherpesvirus 1	viral replication	Vero C1008			IC50	0.023 µM
Cc1ccccc1C(=O)NN=Cc1ccc(O)c(Br)c1	Cryptococcus neoformans			concentration not given, together with: fluconazole		MIC in combination	0.125 µg/mL
CNC(=O)c1cc(Cl)cc(C)c1NC(=O)c1cc(Br)nn1-c1ncccc1Cl	Spodoptera litura		Brassica oleracea field plot	25 ppm, 72 h, 5% water-dispersible granule		larval viability	25.7% and 22.9% and 28.1%
Oc1ccc(-c2nc(N3CCN(c4ccccc4)CC3)no2)cc1	Clostridioides difficile	spore germination	ATCC 43255	45 µM, 1 h		inhibition	14 to 39%
CCCCc1c([N+](=O)[O-])oc2ccc3ccccc3c12	Klebsiella pneumoniae	REMA				MIC90	1.25 µg/mL (≈ 4.64 µM)
C#Cc1ccc(O)c(C=NNC(=O)c2ccc(C3(C(F)(F)F)N=N3)cc2)c1	Cryptococcus neoformans		H99	unit not given, together with: amphotericin B	lower = more synergy	FICI	0.98
CCC[C@@H]1C[C@@H](C(=O)N[C@@H]([C@H]2O[C@H](SC)[C@H](O)[C@@H](O)[C@H]2O)[C@H](C)Cl)N(C)C1	Streptococcus pneumoniae					MIC90	> 32 µg/mL
COc1ccc(-n2ccnc2SCC(=O)Nc2cc(Cl)ccc2OC)c(OC)c1	Plasmodium falciparum	parasite growth, SYBR Green	3D7 DHODH E182D	72 h		EC50	5290 ± 700 nM
C[C@@H](O)[C@@H]1NC(=O)[C@H](Cc2ccccc2)NC(=O)[C@@H](Cc2ccccc2)NC(=O)[C@H]([C@@H](C)O)NC(=O)[C@@H](CCCCN)NC(=O)[C@H](CC(=O)O)NC1=O	Acanthamoeba castellanii			trophozoites		IC50	14.2 µg/mL
C#Cc1ccc(O)c(C=NNC(=O)c2ccc(Br)cc2)c1	Cryptococcus neoformans		H99	unit not given, together with: amphotericin B	lower = more synergy	FICI	0.7
Oc1ccc(-c2nc(-c3ccc(Oc4ccc(I)cc4)cc3)no2)cc1	Clostridioides difficile	spore germination	ATCC 43255	45 µM, 1 h		inhibition	14 to 39%
Cc1noc(-c2cccs2)c1C(=O)NCCc1cccc(Cl)c1	Plasmodium falciparum	parasite growth				EC50	2090 ± 560 nM

SMILES	organism	assay	system	conditions	scale	quantity	value
C[C@H]1CN(c2n[nH]c3nc(N[C@H]4CC[C@H](NS(=O)(=O)CCC(F)(F)F)CC4)ncc23)CCO1	Leishmania donovani		promastigotes, LdBOB CRK12 single knockout		relative to: wild type	EC50 fold change	0.6
CC(Oc1ccc(C(=O)c2ccc(F)cc2)cc1)C(=O)N1CCc2ccccc21 (stereo not drawn)	Plasmodium falciparum	parasite growth	Dd2			EC50	282 ± 39 nM
CS(=O)(=O)CCCn1c(Cn2c(=O)n(CC(F)(F)F)c3ccncc32)cc2cc(Cl)ccc21	respiratory syncytial virus	RT-qPCR	hospitalized infants 1-24 months, nasal swab	oral, 1-9 mg/kg daily, day 6, all doses combined	relative to: placebo	LS mean difference vs placebo	-0.25 log10 copies/mL
CC(C)C[C@H]1NC(=O)[C@H]([C@@H](C)O)NC(=O)[C@@H](CCCN)NC(=O)[C@H](CCCNC(=N)N)NC(=O)[C@@H](Cc2ccccc2)NC1=O	Acanthamoeba castellanii			trophozoites		IC90	> 16 µg/mL
COc1cc(N[C@H](C(=O)c2c[nH]c3ccc(OC(F)(F)F)cc23)c2ccc(Cl)cc2OC)cc(S(C)(=O)=O)c1	dengue virus 2	viral infection, luciferase reporter virus		0.1 nM, 48 h		inhibition	88.3%
CCOC(=O)N1CCC(=C2c3ccc(Cl)cc3CCc3cccnc32)CC1	Plasmodium falciparum		3D7			IC50	10 µM
CCc1nc2nc(C)cc(Nc3ccc(F)c(Cl)c3)n2n1	Plasmodium falciparum	parasite growth, SYBR Green	3D7 DHODH E182D	72 h		EC50	8300 ± 820 nM
CNCCC=C1c2ccccc2CCc2ccccc21	Plasmodium falciparum		HB3			IC50	12.6 µM
C[C@@H](O)[C@@H]1NC(=O)[C@H](Cc2ccccc2)NC(=O)[C@@H](Cc2ccccc2)NC(=O)[C@H]([C@@H](C)O)NC(=O)[C@@H](CCCN)NC(=O)[C@H](CCCNC(=N)N)NC(=O)[C@@H](CCCN)NC1=O	Naegleria fowleri			trophozoites		IC50	> 16 µg/mL
O=C(NC(=O)c1c(F)cccc1F)Nc1ccc(Cl)cc1	Ostrinia furnacalis		corn seedlings	foliar spray, 100 mg/L, 7 days		control efficacy	60%
OCCN1CCN(CC/C=C2/c3ccccc3Sc3ccc(C(F)(F)F)cc32)CC1	Plasmodium falciparum		W2			IC50	1.26 µM
C#Cc1ccc(O)c(C=NNC(=O)c2ccc(Br)cc2Br)c1	Cryptococcus neoformans		H99	unit not given, together with: fluconazole	lower = more synergy	FICI	0.92
NCCCC[C@@H]1NC(=O)[C@@H](CCCN)NC(=O)[C@@H](Cc2ccccc2)NC(=O)[C@H](Cc2ccccc2)NC(=O)CNC1=O	Acanthamoeba castellanii			trophozoites		IC50	> 16 µg/mL
CCn1c(-c2ccccc2)cc2nnc3ccccc3c21	Plasmodium falciparum	parasite growth, SYBR Green	3D7 DHODH E182D	72 h		EC50	632 ± 120 nM
CN(C)c1ccc(O)c2c1C[C@H]1C[C@H]3[C@H](N(C)C)C(O)=C(C(N)=O)C(=O)[C@@]3(O)C(O)=C1C2=O	Plasmodium falciparum		HB3			IC50	5.01 µM
CC(C)[C@H]1NC(=O)[C@H](Cc2ccccc2)NC(=O)CNC(=O)[C@@H](Cc2ccccc2)NC(=O)[C@H](CCCCN)NC(=O)[C@@H](CCCNC(=N)N)NC1=O	Naegleria fowleri			trophozoites		IC50	> 16 µg/mL
Cc1ccc2[nH]c3c(c2c1)CCCC3NCCc1ccc(Br)cc1 (stereo not drawn)	Streptococcus pneumoniae			concentration not given, 10% fetal bovine serum	relative to: without serum	MIC fold change	4
CCOC(=O)Nc1ccc(NCc2ccc(F)cc2)nc1N	Plasmodium falciparum		Dd2			IC50	10 µM
C[C@@H](O)[C@H]1C(=O)N2C(C(=O)O)=C(S[C@@H]3CN[C@H](C(=O)N(C)C)C3)[C@H](C)[C@H]12	Klebsiella pneumoniae		NDM-producing, neutropenic BALB/c mouse, thigh infection, thigh	dose not given, 2 h		bacterial burden, mean	6.8 log10 CFU/thigh
C#C[C@@]1(O)[C@H](O)[C@@H](CO)O[C@H]1n1ccc2c(N)ncnc21	dengue virus 2	viral replication	Huh-7.5.1, Renilla luciferase reporter			EC90	1300 nM
O=C(CNCC1CCCCC1)Nc1cc(C(F)(F)F)ccc1Cl	Plasmodium falciparum	parasite growth, SYBR Green		72 h	relative to: 3D7-E182D over 3D7	EC50 ratio	8.6
O=C(NN=Cc1ccc(O)c(Br)c1)c1cccc(Br)c1	Cryptococcus neoformans			together with: caspofungin	lower = more synergistic	FIC index	1
CC(C)[C@H]1NC(=O)[C@@H]([C@H](C)O)NC(=O)[C@H](CO)NC(=O)[C@@H](CCCNC(=N)N)NC(=O)CNC(=O)[C@H](Cc2ccccc2)NC(=O)[C@H]([C@@H](C)O)NC1=O	Acanthamoeba castellanii			trophozoites		IC50	> 16 µg/mL
Cc1cc(Nc2ccc(C(C)(C)C)cc2)c2[nH]ncc2n1.Cl	Plasmodium falciparum	parasite growth, SYBR Green		72 h	relative to: 3D7-E182D over 3D7	EC50 ratio	4.1
CC[C@H](C)[C@H](NC(=O)[C@H](C)NC(=O)[C@H](CCCCN)NC(=O)[C@H](CC(C)C)NC(=O)[C@H](C)NC(=O)[C@@H](NC(=O)[C@H](Cc1c[nH]cn1)NC(=O)[C@H](CC(C)C)NC(=O)[C@@H](NC(=O)[C@@H](NC(=O)[C@H](CCCCN)NC(=O)[C@H](C)NC(=O)[C@H](C)NC(=O)[C@H](CO)NC(=O)[C@H](CCCCN)NC(=O)[C@H](Cc1ccccc1)NC(=O)[C@@H](NC(=O)[C@H](CCCCN)NC(=O)[C@H](CC(C)C)NC(=O)[C@H](Cc1ccccc1)NC(=O)[C@H](CO)NC(=O)[C@H](CCCCN)NC(=O)[C@H](Cc1c[nH]c2ccccc12)NC(=O)[C@H](CCCCN)NC(C)=O)[C@@H](C)O)[C@@H](C)O)C(C)C)[C@@H](C)O)C(=O)N[C@@H](CO)C(=O)N[C@@H](CO)C(N)=O	Streptococcus pyogenes		erythromycin-sensitive	21 strains		MIC50	32 µg/mL (≈ 10.9 µM)

Repeated from above:
SMILES	organism	assay	system	conditions	scale	quantity	value
C#Cc1ccc(O)c(C=NNC(=O)c2ccc(Br)cc2)c1	Cryptococcus neoformans		H99	unit not given, together with: amphotericin B	lower = more synergy	FICI	0.7
Oc1ccc(-c2nc(-c3ccc(Oc4ccc(I)cc4)cc3)no2)cc1	Clostridioides difficile	spore germination	ATCC 43255	45 µM, 1 h		inhibition	14 to 39%
Cc1noc(-c2cccs2)c1C(=O)NCCc1cccc(Cl)c1	Plasmodium falciparum	parasite growth				EC50	2090 ± 560 nM
C[C@H]1CN(c2n[nH]c3nc(N[C@H]4CC[C@H](NS(=O)(=O)CCC(F)(F)F)CC4)ncc23)CCO1	Leishmania donovani		promastigotes, LdBOB CRK12 single knockout		relative to: wild type	EC50 fold change	0.6
CC(Oc1ccc(C(=O)c2ccc(F)cc2)cc1)C(=O)N1CCc2ccccc21 (stereo not drawn)	Plasmodium falciparum	parasite growth	Dd2			EC50	282 ± 39 nM
CS(=O)(=O)CCCn1c(Cn2c(=O)n(CC(F)(F)F)c3ccncc32)cc2cc(Cl)ccc21	respiratory syncytial virus	RT-qPCR	hospitalized infants 1-24 months, nasal swab	oral, 1-9 mg/kg daily, day 6, all doses combined	relative to: placebo	LS mean difference vs placebo	-0.25 log10 copies/mL
CC(C)C[C@H]1NC(=O)[C@H]([C@@H](C)O)NC(=O)[C@@H](CCCN)NC(=O)[C@H](CCCNC(=N)N)NC(=O)[C@@H](Cc2ccccc2)NC1=O	Acanthamoeba castellanii			trophozoites		IC90	> 16 µg/mL
